# Measured values gathered from unrelated publications.
# Each line is one published result; not all experiments were run side by side. “And” joins repeats or separate records; there may be more than shown.
# Cell line: DU-145
SMILES,test,system,setting,endpoint,value
C1N2CN3CN1CP(C2)C3.COc1ccc(C(O)=CC(=O)c2ccc(C(C)(C)C)cc2)cc1.Cc1ccc(C(C)C)cc1.[Ru+2],cytotoxicity,,dark,IC50,490 nM
CC1CCC2C(C)C(OC(=O)CCC(=O)OC3C(C)OC(n4cc(F)c(=O)[nH]c4=O)C3OC(=O)CCC(=O)OC3OC4OC5(C)CCC6C(C)CCC(C3C)C46OO5)OC3OC4(C)CCC1C32OO4 (centres unmarked),"cell growth or viability, CCK-8",,,IC50,> 50000 nM
COc1ccc(C([O-])=CC(=O)c2ccc(C(C)(C)C)cc2)cc1.Cc1ccc(C(C)C)cc1.[Cl-].[Ru+2],cytotoxicity,,dark,IC50,> 10000 nM
CC1CCC2C(C)C(OC(=O)CCC(=O)N3CCN(CC(=O)Nc4ccc([N+](=O)[O-])c(C(F)(F)F)c4)CC3)OC3OC4(C)CCC1C32OO4 (centres unmarked),"cell growth or viability, CCK-8",,,IC50,> 50000 nM
C#CCCCC[C@H](C)C[C@@H](C)C(=O)N(C)[C@H](C(=O)N(C)[C@@H](Cc1ccccc1)C(=O)N1CCC[C@H]1C(=O)N1CCC[C@H]1C(C)=O)C(C)C,"cell growth or viability, SRB",,,IC50,983 nM and 1420 nM and 540 nM
CC(C)(C)C(=O)OCOP(=O)(OCOC(=O)C(C)(C)C)C1CCCN(O)C1=O (centres unmarked),,,,log LC50,> -4 log M
C#CCCCC[C@H](C)C[C@@H](C)C(=O)N(C)[C@@H](C)C(=O)N1CCC[C@H]1C(=O)N(C)[C@H](C(=O)N(C)[C@H](C(=O)OC)C(C)C)C(C)C,"cell growth or viability, SRB",,,IC50,1290 nM and 1090 nM and 1480 nM
C[C@H]1[C@H](OC(=O)CCC(=O)OCCC2CCN(CC(=O)Nc3ccc([N+](=O)[O-])c(C(F)(F)F)c3)CC2)O[C@@H]2O[C@@]3(C)CC[C@H]4[C@H](C)CC[C@@H]1[C@@]24OO3,"cell growth or viability, CCK-8",,,IC50,> 50000 nM
Cc1cc(Oc2nc(N3CC[C@@H](c4ccncc4)C3)ncc2F)[nH]n1,cell proliferation,prostate cancer,,IC50,46800 nM
CC(C)C12OC1C1OC13C1(C)CCC4=C(COC4=O)C1CC1OC13C2OC(=O)CCCOC1OC(CO)C(O)C(O)C1O (centres unmarked),"cell growth or viability, XTT",,47 h,IC50,440 nM
CC(=O)[C@@H]1CCCN1C(=O)[C@@H]1CCCN1C(=O)[C@H](Cc1ccccc1)NC(=O)[C@@H](NC(=O)[C@@H](NC(=O)[C@@H](NC(=O)[C@@H]1CCCN1C(=O)[C@H](C)NC(=O)OC(C)(C)C)C(C)C)C(C)C)C(C)C,"cell growth or viability, SRB",,,IC50,1020 nM and 1270 nM and 1010 nM

# Repeated from above:
SMILES,test,system,setting,endpoint,value
CC(C)C12OC1C1OC13C1(C)CCC4=C(COC4=O)C1CC1OC13C2OC(=O)CCCOC1OC(CO)C(O)C(O)C1O (centres unmarked),"cell growth or viability, XTT",,47 h,IC50,440 nM
